{"data": "Measurements from different studies", "note": "A part holds a random share of what one study measured. Substitutions count along the parent as printed."}
{"data": "Series 1", "target": "PABPC1L2, full length, GST fusion (mouse, UniProt A0ABA7IW68)", "method": "RNAcompete", "form": "RNA", "sample": "in vitro", "tested at": "20 nM", "setting": "7-mer, probes averaged, single round", "reference": "mean of 7-mers", "reading": "higher = stronger binding", "Target sequence (chain)": "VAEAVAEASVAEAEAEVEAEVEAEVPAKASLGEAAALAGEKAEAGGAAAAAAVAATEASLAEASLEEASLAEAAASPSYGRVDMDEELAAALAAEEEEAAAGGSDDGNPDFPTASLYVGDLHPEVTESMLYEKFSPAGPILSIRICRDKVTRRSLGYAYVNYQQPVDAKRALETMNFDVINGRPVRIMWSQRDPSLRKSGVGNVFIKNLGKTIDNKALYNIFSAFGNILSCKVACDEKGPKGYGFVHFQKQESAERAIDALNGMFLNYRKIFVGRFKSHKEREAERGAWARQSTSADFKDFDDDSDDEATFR"}
{"Sequence": "CUUCUAG", "7-mer Z-score": -0.3}
{"Sequence": "UAUCCCA", "7-mer Z-score": -0.376}
{"Sequence": "UUGUCCC", "7-mer Z-score": -0.42}
{"Sequence": "CGGCAGU", "7-mer Z-score": -0.00833}
{"Sequence": "UGUACCC", "7-mer Z-score": -0.325}
{"Sequence": "UGUGUAU", "7-mer Z-score": -0.306}
{"Sequence": "GGGAUGC", "7-mer Z-score": 0.204}
{"Sequence": "UCCUAAU", "7-mer Z-score": -0.295}
{"Sequence": "UGCAUAU", "7-mer Z-score": -0.17}
{"data": "Series 2", "target": "Histone acetyltransferase KAT6A, both winged helices, GST fusion (KAT6A, Homo sapiens, UniProt Q92794, residues 1-181)", "method": "protein binding microarray", "form": "double-stranded DNA, one strand shown", "sample": "in vitro", "tested at": "not given", "setting": "8-mer, flanks averaged, mean of 2 arrays, mostly near background", "reference": "not given", "reading": "higher = stronger binding", "Target sequence (chain)": "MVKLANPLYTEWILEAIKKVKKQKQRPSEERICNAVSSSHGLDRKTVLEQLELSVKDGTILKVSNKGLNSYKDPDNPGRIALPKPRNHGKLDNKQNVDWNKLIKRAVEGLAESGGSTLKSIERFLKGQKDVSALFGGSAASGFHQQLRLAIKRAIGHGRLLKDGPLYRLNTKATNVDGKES"}
{"Sequence": "CTAGTACA", "E-score": -0.0531}
{"Sequence": "AAATGGAA", "E-score": -0.197}
{"Sequence": "GAAGTATA", "E-score": 0.0357}
{"Sequence": "CTCTCCAG", "E-score": -0.265}
{"Sequence": "CAGCCCCA", "E-score": -0.0825}
{"Sequence": "GCGGCCCC", "E-score": 0.163}
{"Sequence": "ACGCATAA", "E-score": 0.109}
{"Sequence": "GGGAAAGA", "E-score": -0.207}
{"Sequence": "TTCGAAAA", "E-score": 0.0703}
{"Sequence": "GCTTGGTA", "E-score": -0.0826}
{"Sequence": "CATCTTGA", "E-score": -0.186}
{"Sequence": "ACTTAAAG", "E-score": -0.205}
{"Sequence": "ATCTAGCG", "E-score": 0.139}
{"Sequence": "AGTTTACG", "E-score": 0.046}
{"Sequence": "ATGTGCTA", "E-score": 0.121}
{"Sequence": "ATCCAAAC", "E-score": -0.199}
{"data": "Series 3", "target": "CCNF, cyclin fold, Cln2 fusion (human)", "method": "yeast growth competition, sequencing", "sample": "yeast", "setting": "strong parent motif", "reference": "not given", "reading": "higher = stronger binding", "starting sequence": "MICAL3 docking peptide (human); LQLRRQLSFSEDS; partner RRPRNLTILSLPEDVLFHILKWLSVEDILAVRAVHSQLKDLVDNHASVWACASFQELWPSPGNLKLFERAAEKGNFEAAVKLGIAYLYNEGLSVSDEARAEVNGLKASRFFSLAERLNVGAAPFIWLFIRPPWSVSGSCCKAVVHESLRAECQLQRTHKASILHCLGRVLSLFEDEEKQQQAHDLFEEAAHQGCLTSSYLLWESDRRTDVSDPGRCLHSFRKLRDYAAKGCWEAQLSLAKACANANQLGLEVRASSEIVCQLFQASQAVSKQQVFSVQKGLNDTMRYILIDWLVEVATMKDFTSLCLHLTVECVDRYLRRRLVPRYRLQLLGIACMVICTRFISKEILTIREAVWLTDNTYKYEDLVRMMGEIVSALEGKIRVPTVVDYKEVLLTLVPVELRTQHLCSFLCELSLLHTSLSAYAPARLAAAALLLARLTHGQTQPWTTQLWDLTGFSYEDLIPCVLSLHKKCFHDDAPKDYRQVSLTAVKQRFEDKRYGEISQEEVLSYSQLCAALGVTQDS"}
{"Change": "LQLRRQWSFSEDS [L7W]", "normalised enrichment score": 0.354}
{"Change": "LQLRRQLRFSEDS [S8R]", "normalised enrichment score": 8.01}
{"Change": "LQLRRQMSFSEDS [L7M]", "normalised enrichment score": 0.615}
{"Change": "LQLRCQLSFSEDS [R5C]", "normalised enrichment score": 0.39}
{"Change": "LQLRRQESFSEDS [L7E]", "normalised enrichment score": -0.0913}
{"Change": "LQLRRQLVFSEDS [S8V]", "normalised enrichment score": 8.07}
{"Change": "LQLRRQLSFAEDS [S10A]", "normalised enrichment score": 5.42}
{"Change": "LQLRRQLSFPEDS [S10P]", "normalised enrichment score": 6.22}
{"Change": "LQLRRQLSQSEDS [F9Q]", "normalised enrichment score": 0.248}
{"data": "Other studies, line by line"}
{"Molecule": "PhoQ, residues 284 288 289 292 302 303 ALSMDL", "target": "PhoP, residues 12 14 15 18 19 LHATL (Escherichia coli, UniProt P23836)", "test": "Sort-seq, measured: YFP reporter", "test system": "E. coli", "setting": "PhoQ-PhoP variant library, with: 10 µM Mg2+", "how to read": "reference: high Mg2+ state, higher = stronger signaling", "measurement": "fold induction", "result": 0.681}
{"note": "For quick reference, copied from above (series 2):"}
{"Sequence": "GGGAAAGA", "E-score": -0.207}
{"Sequence": "AAATGGAA", "E-score": -0.197}
{"Sequence": "CATCTTGA", "E-score": -0.186}
{"Sequence": "ATCTAGCG", "E-score": 0.139}
